Measurements gathered from unrelated publications.
Parts stem from different laboratories: compare values within a part only. Changes are numbered by the printed parent chain.

Block 1
Target: CREBL2, bZIP domain (human)
Technique: DHFR protein complementation
Medium: yeast
Notes: single substitutions, most at no-binding floor
Baseline: wild-type JUN-FOS pair
Direction: higher = stronger binding
Measurement: binding fitness
Starting sequence: JUN, bZIP domain (human); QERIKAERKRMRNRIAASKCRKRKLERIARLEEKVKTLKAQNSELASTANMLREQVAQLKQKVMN; partner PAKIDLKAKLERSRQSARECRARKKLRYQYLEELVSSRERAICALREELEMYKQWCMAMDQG
N42S: -1.5 natural log
Q55Y: -1.5 natural log
E32T: -1.34 natural log
R30L: -1.36 natural log
R30F: -1.51 natural log
A57W: -1.52 natural log
A49Q: -1.44 natural log
L52K: -1.58 natural log
E54W: -1.47 natural log
R30A: -1.46 natural log
L31T: -1.54 natural log
E44W: -1.44 natural log
E54I: -1.3 natural log
L38D: -1.5 natural log
A40G: -1.53 natural log
M51A: -1.41 natural log

Block 2
Target: CCNB3, cyclin fold, Cln2 fusion (human)
Technique: yeast growth competition, sequencing
Medium: yeast
Notes: strong parent motif
Baseline: not given
Direction: higher = stronger binding
Measurement: normalised enrichment score
Starting sequence: RBL2 docking peptide (human); STTRRRLFVENDS; partner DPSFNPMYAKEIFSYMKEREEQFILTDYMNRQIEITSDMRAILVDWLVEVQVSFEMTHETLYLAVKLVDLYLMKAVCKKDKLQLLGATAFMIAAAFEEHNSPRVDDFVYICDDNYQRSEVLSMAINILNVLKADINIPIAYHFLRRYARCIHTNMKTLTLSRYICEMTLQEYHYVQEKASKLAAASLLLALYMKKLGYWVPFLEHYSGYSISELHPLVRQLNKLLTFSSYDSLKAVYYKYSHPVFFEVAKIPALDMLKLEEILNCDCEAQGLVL
S13M: 0.868
V9S: 0.98
S13K: 0.347
N11E: 1.15
S13Q: 0.595
F8C: 0.258
T3D: 0.127
D12M: 0.689
V9N: 1.27
N11H: 0.833
T3I: 2.05
R6S: 1.02
R5V: 0.073
E10M: 0.965
L7I: 0.546
S13E: 1.27
L7S: 0.182
V9M: 1.06
R5H: -0.0965
F8Q: 0.45
R5E: 0.575
N11S: 0.952
V9Q: 0.852
S13N: 0.853
T2N: 1.12

Block 3
Target: RING finger protein unkempt homolog, zinc fingers 1-6, SBP tag (UNK, Homo sapiens, UniProt Q9C0B0, residues 30-357)
UniProt Q9C0B0, sequence (30-357, looked up): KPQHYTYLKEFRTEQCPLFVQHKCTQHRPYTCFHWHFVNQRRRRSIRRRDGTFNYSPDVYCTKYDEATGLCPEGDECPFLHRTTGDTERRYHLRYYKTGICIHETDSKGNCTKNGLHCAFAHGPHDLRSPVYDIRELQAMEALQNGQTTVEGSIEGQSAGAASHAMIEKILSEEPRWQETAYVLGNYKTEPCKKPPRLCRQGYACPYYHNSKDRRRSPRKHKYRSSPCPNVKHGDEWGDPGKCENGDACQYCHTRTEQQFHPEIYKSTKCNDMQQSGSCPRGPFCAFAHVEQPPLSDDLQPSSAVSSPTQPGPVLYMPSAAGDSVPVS
Technique: RNA Bind-n-Seq
Molecule type: RNA
Medium: in vitro
Tested at: 100 nM
Notes: RNA with constant flanks, vertebrate orthologous sites, ends assumed
Baseline: input RNA pool
Direction: higher = stronger binding
Measurement: bound/input enrichment
Constant ends, left off below: GGGAGUUCUACAGUCCGACGAUC … CAACAGAGGAUUGAGCAUCA
GUUGGUGCAGAGUGCUCUCUGUAUCAGUGCCCAUCAUCCCUUCUUCAUACCAACUGUCCCUAGUUAUAGGAAUUUAAUAUUUUUAAAAGUUUUACAUUGCUGUAUAUUCAAAGAUUUGUU: 1.15 ratio
CUACAAUAAUGAAAAACCUACCAGGAAUUUUUUUAUUUUUCAUUUCCCCUUAGGCAUUCCUAGUCUUUUUCCCCCCAGGCAGAUCAUUCUGAGUGUGCGAGUGUGUGUGCACAUGUUACA: 0.815 ratio
CGGUUGUAGGAAUGAAAACUUUCAUAGGGAUAACUGUCCAGAGUGAUCACUAGUUUGUACUAGCAGAGUCACUGUCACAUUUUAAUUGUCUGCUUUGUCUGCCACCCGAAACCAAUCAAA: 0.58 ratio
CCAUUGUAUCCUGCUGUAUAAUAAGCAAUCUUAGCAUUUAUCAACUGUUGAUACAAAUGUUAGUCCCUAACCACUUUUUAUAUGUUUUAAAACUUUGAAAUUCAAGUGUACCUGCCAUAA: 0.858 ratio
GAAGCUCAGCACUUAACAACUGACACCCCAAAAGACGUAGAAAAGGUUUACAAAAUAAUCUAGUUUACGAAGAAAUCUUGUGCUAGAAUACUUUUUAAAGUAUUUUUGAAUACCAUUAAA: 0.248 ratio
CCGAAAGGCCAAAUUCCCUCCUCCCUCCUACUGCUUCUACCAACUGGAAGCACAGAAAACUAGAAUUUCAUUUAUUUUGUUUUUAAAAUAUAUAUGUUGAUUUCUUGUAACAUCCAAUAG: 0.498 ratio
AAGAUGGUGGUUGUACAUUAUUUCAUUUAGAAAAUAUAAAAAUUCAUUUUGUUUUGAAGCUAGGUGUUAAACUGGAAUAGCUCUUUAUACCCCAGAGAAUGGGGCAGUUGUGCCCUUCCC: 1.56 ratio
CAACGCCAUGGUGGAAGGCUCUGAGCUCAAAAAGGUCCGAUCCAACUCCAGGGUGUAUCACCGAUACUUUCUUUUGGAUGCUGAUAUGCAGUCUCUCCGUUGGGAACCUUCAAAGAAGGA: 0.337 ratio
AUUCAAACCUGUGGUACCAUGGCCUCAUGUUGAAGGAGUAGAAGUGGACUUAGAGUCUAUUAGAAGAAAAAACAAGGCCAAAAAUGAACAAGAACACCAUGCUGGCAGAGAUUCCCAGAA: 0.373 ratio
CUGAAGCUUUGUGUUUGGCUGCACCUGCAUAAGCUGCUACAAAUAGAAUAAAGAAUUUCAUAGCCUGUAUCUAUCAUUUAGAUGCAUGGAAAAAUGGGCUUUGCACACAAUGGGUUUGGA: 2.48 ratio
ACCUCAUGAACUUUUAAGCUAUCAUAAGUUGUGGUUGUUUUAGAUAGUGACUGUCUUCUGUAGAGCUUUCCCCUGUUUUCUGCCUCCUCCUCUUUUCCCUGUUCCAAAGGUGGAUUUCAC: 0.376 ratio

Block 4
Target: RNA binding protein fox-1 homolog 2, RRM domain, GST-SBP tag (RBFOX2, Homo sapiens, UniProt O43251-10, residues 100-194)
Technique: RNA Bind-n-Seq
Molecule type: RNA
Medium: in vitro
Tested at: 365 nM
Notes: natural RNA segment, single round, ends assumed
Baseline: no-protein control
Direction: higher = stronger binding
Measurement: RBNS enrichment (R)
Constant ends, left off below: GGGAGUUCUACAGUCCGACGAUC … UGGAAUUCUCGGGUGCCAA
Target sequence (chain): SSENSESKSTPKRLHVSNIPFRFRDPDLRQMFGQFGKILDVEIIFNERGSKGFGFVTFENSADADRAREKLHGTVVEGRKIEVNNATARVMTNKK
CAGGCUAUGGGAUCCUUGGCCACCUUGCUUCAUGAUUUGAUACAUUUGUUGUAUUCAAAAACUUGAACUGUAGGAUGCCAUUAAGAGUCUGUUUAUAUUUUUGGAAUAUU: 0.491
CUCUUUCUUACUGCUGGAAGUCACAGAAUUCAUAUUGCUGCCCGGGUUGGUGUGGCCACCUUUCCCUUUGUCCAAGACUCCACAUGGAAGGCAUUUGAGCUCGACCUCCG: 0.327
CCAUAGUUCCUGCCUGCCAUCCUUCUGUGAGGGUCCAUUGCUGCUUGAUGGCCAUCUCUGCCUUUUAUAGUCACCUGACACUGACCUACAUCUCUCGCUUGCUUAAAGUC: 3.3
UGGCUCAUCAGCCAGCAUUGGUGAAUAUUCAGUUUAGGGGAACAGUUCUAGGGAGUGAGACAUUUUUGGGAGCAGAGGAAAACUCUGCUGAUGUUCGGUCCUGGCAAACA: 0.609
CAAACAUUCCUGUGUCACUUAAGAAUGUUAGUAGAGGUCGCUUCUUUGGAAAUUGAGGACUUUUUUUUUUCCUUUGAAAGUAUGGCAUCUGAAGAACACAGUAUCAUGAC: 0.445
GUAGACUGUGGAAGGUGUUGAUUAUGUUUCCUCUGGGGCCUGGUAGGAUGCUAAUCCCUAGAGCAGUUUACCAGCUAUGUGUGAAAUUGAAGCAGGUACCAUGGAUGACA: 2.28
AUCGUGCAAGCUCUGUCAUAAUCUGCAUCUUCCCAGCAGCCUGGUACCCCAGGUUCCUGUAACUCCCUGCCUCCUCCUCUCUUCUGCUGUUCUGCUCCUCCCAGACAGAG: 2.24
UGUGUAAGCAUUGAACACUGUCUUAGGAAAGGCCAUGAGGCCAUAUUUCUGUCAACCCUGGACCAACCAGUCUCUUAGAAGCCACUCAAGGGUAUAACACAUGCUCCGAG: 1.24
UUUUUCUAAGAAGAAAAUUCAGAAGAAAAGUAACUGAGUUUUGUUACUGGUAAAAUGGAAAUACUUCACAGAGUGAAUAAAGAAUACUUUUUUUUUUGUAAAUGUUCUGU: 0.557
UUUCAGAGGCCUUUUUUUGUUUGUUUUAAUUUUUGCUAGAUUGAUAUUAAAAACUCAUGUGGAGGAACUCAAGGAAUGUUUAGAAGACCAAAAGUCCCCAAUGACAGGAA: 1.99
UUUCUGUUGUCCUCUGCCUAUGUGGAGUUGACAGGGUUUGGCCUGCAGAUGUGUCUGGACUUGAGCCCAGUGCUUUGGGGCCUUGAGACUCCAGCGACUGCACACCCGCU: 0.427
AAAGAGAAUUCUUUUCUAUAGAACGAGUGGGGGCGGGGAUGGGUAGGGAUUUAUCCAAUCUAAGCCCUAACCCCACUUAGUGACCUCAGUGUUUUCUUCCAUUCCUUCUU: 0.161

Block 5
Target: ABI1, truncated, D143A, DHFR fusion (Arabidopsis thaliana, UniProt P49597)
Technique: DHFR PCA, dose-response
Medium: yeast
Notes: Hill fit, not affinity
Together with: (+)-ABA, dose series
Direction: lower = more sensitive
Measurement: ABA EC50
Starting sequence: PYL1, truncated, DHFR fusion (Arabidopsis thaliana, UniProt Q8VZS8); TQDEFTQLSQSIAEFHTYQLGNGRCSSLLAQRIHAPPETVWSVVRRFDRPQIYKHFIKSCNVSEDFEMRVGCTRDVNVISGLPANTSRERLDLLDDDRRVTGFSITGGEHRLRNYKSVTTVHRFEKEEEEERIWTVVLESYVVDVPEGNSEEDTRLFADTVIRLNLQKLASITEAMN
T160F: 2.04 µM
D92V: 60.7 µM
N61T: 2.72 µM
S9R: 6.49 µM
F103Y: 49.3 µM
K126A: 1.96 µM
